Earlier results that unrelated publications cite.
Lines come from different studies, so protocols differ. ± gives the spread as reported.
Organism: HIV-1

`O=C(CCC(CCC(=O)N[C@@H](Cc1ccc(O)cc1)C(=O)O)(CCC(=O)N[C@@H](Cc1ccc(O)cc1)C(=O)O)NC(=O)CCOCC(COCCC(=O)NC(CCC(=O)N[C@@H](Cc1ccc(O)cc1)C(=O)O)(CCC(=O)N[C@@H](Cc1ccc(O)cc1)C(=O)O)CCC(=O)N[C@@H](Cc1ccc(O)cc1)C(=O)O)(COCCC(=O)NC(CCC(=O)N[C@@H](Cc1ccc(O)cc1)C(=O)O)(CCC(=O)N[C@@H](Cc1ccc(O)cc1)C(=O)O)CCC(=O)N[C@@H](Cc1ccc(O)cc1)C(=O)O)COCCC(=O)NC(CCC(=O)N[C@@H](Cc1ccc(O)cc1)C(=O)O)(CCC(=O)N[C@@H](Cc1ccc(O)cc1)C(=O)O)CCC(=O)N[C@@H](Cc1ccc(O)cc1)C(=O)O)N[C@@H](Cc1ccc(O)cc1)C(=O)O` gave an EC50 of 6400 ± 1400 nM (viral cytopathicity; MT-4, NL4.3).
For `CC(=O)N[C@H](CCCNC(=N)N)C(=O)N[C@H](CCCNC(=N)N)C(=O)N[C@H](CCCNC(=N)N)C(=O)N[C@H](CCCNC(=N)N)C(=O)N[C@H](CCCNC(=N)N)C(=O)N[C@H](CCCNC(=N)N)C(=O)N[C@H](CCCNC(=N)N)C(=O)N[C@H](CCCNC(=N)N)C(=O)N[C@H](CCCNC(=N)N)C(N)=O`, the IC50 was 3 nM (viral replication; HuT78, NL4-3).
`N#C/C=C/c1cc(Cl)cc(Oc2ccc(Cl)cc2OCCn2ccc(=O)[nH]c2=O)c1` gave an EC50 of 0.055 nM (viral replication; wild type).
With `COCCNC(=O)C(NC(=O)C(O)(Cc1ccccc1)CN(Cc1ccc(Br)cc1)NC(=O)C(NC(=O)OC)C(C)(C)C)C(C)C` (centres unmarked) the EC50 was 3100 nM (viral replication; MT-4).
`CC(C)CN(C[C@@H](O)[C@H](Cc1ccccc1)NC(=O)O[C@H]1C2CO[C@H]3OC[C@@H]1C3C2)S(=O)(=O)c1ccc2nc(NC3CC3)sc2c1` (some centres unmarked) has an IC50 of 0.39 nM (viral replication, p24; MT-4, NL4-3 wild type; mean value).
For `COC(=O)NC(C(=O)NN(Cc1ccc(Br)cc1)CC(O)(Cc1ccccc1)C(=O)Nc1cccc(O)c1C)C(C)(C)C` (centres unmarked), the EC50 was over 10000 nM (viral replication; MT-4).
`Cc1cc(C#N)cc(C)c1Oc1nc(NC2CCN(Cc3ccc(S(N)(=O)=O)cc3)CC2)nc2ccsc12` gave an EC50 of 1.4 ± 0.4 nM (viral replication, MTT; MT-4, IIIB wild type).
The EC50 of `Cc1cc(C#N)cc(C)c1Oc1ccnc(Nc2ccc(CN3CCOCC3)cc2)n1` is reported as 11 nM (viral replication; wild type).
